{"data": "Published values of several laboratories", "note": "Parts stem from different laboratories: compare values within a part only. Values joined by “and” are separate records of one study, mostly repeats; a detail may differ.", "chain of UniProt Q09013 (whole entry, looked up)": "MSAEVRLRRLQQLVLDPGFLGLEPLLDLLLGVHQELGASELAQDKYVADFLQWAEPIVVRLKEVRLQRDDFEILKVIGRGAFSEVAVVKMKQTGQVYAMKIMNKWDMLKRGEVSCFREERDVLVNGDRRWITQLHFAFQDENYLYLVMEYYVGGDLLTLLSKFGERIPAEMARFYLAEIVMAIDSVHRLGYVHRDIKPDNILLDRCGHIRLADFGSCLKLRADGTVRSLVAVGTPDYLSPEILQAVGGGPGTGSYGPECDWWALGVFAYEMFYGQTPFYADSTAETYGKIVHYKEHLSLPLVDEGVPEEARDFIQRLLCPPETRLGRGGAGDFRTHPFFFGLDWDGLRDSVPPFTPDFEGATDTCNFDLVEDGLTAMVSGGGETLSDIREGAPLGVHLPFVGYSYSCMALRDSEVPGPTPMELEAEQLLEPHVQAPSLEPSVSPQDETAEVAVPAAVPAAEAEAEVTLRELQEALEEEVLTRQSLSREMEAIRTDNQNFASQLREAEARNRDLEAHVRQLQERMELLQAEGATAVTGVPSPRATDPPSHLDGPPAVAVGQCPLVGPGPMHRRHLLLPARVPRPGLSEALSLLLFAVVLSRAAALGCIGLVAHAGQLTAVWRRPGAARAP", "chain of UniProt P49841 (whole entry, looked up)": "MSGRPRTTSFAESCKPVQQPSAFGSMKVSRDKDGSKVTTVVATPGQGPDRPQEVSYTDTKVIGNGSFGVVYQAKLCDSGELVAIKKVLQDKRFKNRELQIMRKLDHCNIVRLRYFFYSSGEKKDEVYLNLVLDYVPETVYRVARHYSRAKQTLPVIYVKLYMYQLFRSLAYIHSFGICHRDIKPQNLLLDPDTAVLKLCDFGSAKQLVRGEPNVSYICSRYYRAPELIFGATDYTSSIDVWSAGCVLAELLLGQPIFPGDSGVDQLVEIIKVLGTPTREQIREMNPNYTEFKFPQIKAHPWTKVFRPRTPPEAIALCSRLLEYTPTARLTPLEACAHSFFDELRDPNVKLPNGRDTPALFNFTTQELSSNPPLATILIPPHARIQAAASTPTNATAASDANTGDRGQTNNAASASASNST", "chain of UniProt P45985 (whole entry, looked up)": "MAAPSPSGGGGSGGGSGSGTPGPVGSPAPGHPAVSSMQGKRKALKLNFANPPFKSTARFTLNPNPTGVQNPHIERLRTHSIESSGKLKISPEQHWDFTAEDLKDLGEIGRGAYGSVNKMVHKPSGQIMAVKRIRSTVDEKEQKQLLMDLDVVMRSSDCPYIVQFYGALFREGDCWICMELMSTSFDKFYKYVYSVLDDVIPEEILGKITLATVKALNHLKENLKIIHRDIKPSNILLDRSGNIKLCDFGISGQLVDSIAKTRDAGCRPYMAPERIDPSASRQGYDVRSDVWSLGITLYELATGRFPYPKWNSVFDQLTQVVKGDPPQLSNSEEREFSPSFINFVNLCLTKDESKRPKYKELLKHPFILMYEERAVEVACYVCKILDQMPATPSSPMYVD", "chain of UniProt Q9H2K8 (whole entry, looked up)": "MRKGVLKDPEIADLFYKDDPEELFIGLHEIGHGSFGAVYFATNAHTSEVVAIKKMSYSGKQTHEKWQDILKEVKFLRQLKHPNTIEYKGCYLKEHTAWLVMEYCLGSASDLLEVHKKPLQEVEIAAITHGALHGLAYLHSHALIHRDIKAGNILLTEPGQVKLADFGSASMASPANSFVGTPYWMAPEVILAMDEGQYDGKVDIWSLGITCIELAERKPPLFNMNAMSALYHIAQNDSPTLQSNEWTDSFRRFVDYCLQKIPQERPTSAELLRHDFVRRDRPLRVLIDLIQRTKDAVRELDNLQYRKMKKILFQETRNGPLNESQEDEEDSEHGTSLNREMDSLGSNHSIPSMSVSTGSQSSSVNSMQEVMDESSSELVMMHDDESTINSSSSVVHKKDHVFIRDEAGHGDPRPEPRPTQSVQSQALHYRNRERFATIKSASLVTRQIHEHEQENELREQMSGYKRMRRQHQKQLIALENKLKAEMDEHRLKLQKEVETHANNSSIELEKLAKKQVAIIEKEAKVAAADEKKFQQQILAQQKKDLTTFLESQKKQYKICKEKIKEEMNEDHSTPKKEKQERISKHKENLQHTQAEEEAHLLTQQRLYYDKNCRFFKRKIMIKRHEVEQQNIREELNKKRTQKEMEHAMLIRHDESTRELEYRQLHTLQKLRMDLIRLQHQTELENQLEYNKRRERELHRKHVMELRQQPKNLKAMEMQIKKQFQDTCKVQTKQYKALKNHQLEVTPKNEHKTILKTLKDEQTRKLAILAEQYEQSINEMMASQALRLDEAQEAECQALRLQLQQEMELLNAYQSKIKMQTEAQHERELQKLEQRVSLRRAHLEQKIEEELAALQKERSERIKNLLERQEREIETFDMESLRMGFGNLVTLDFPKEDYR", "chain of UniProt P30291 (whole entry, looked up)": "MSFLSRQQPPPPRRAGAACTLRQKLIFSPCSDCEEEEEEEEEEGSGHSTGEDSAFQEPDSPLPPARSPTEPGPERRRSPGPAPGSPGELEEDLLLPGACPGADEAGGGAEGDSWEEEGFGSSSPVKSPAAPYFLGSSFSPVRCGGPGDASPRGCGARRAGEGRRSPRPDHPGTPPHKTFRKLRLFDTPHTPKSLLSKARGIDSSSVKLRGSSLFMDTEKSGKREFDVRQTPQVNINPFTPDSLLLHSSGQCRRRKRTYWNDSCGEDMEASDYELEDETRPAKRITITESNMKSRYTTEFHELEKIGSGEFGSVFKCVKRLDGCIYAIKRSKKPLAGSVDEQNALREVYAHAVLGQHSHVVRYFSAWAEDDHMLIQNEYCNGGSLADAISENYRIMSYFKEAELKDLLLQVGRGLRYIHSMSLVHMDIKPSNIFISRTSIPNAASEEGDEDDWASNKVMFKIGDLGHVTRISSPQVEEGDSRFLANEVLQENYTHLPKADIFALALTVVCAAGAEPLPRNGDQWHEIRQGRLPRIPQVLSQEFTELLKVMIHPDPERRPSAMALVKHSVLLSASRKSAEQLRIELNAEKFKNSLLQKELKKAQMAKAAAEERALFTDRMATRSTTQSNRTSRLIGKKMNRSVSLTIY"}
{"data": "Sample 1", "target": "Serine/threonine-protein kinase 26 (STK26, Homo sapiens, UniProt Q9P289)", "effect on": "enzyme activity", "mode": "inhibitor", "concentration": "0.5 µM", "reference": "control", "chain of UniProt Q9P289 (whole entry, looked up)": "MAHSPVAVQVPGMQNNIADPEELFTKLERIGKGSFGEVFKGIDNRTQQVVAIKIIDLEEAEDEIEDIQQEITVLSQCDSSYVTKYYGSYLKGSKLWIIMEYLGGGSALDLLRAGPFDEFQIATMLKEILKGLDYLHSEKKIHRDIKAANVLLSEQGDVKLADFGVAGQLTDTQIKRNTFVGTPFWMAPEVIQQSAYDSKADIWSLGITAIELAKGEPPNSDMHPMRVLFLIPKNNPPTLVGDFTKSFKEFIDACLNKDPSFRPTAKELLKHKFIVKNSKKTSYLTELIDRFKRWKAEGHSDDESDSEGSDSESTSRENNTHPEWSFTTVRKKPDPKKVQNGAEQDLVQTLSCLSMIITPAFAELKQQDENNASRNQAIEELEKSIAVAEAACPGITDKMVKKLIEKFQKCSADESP"}
{"Compound": "COc1cc2c(Nc3ccc(Br)cc3F)ncnc2cc1OCC1CCN(C)CC1", "remaining activity": "102%"}
{"Compound": "CNc1cc2c(Nc3cccc(Br)c3)ncnc2cn1", "remaining activity": "109%"}
{"Compound": "NC(=O)c1ccc(-c2nc(-c3ccc4c(c3)OCCO4)c(-c3ccccn3)[nH]2)cc1", "remaining activity": "88.3%"}
{"Compound": "O=C1NC(=O)/C(=C/c2ccc3c(c2)OC(F)(F)O3)S1", "remaining activity": "86.8%"}
{"Compound": "C[C@@H](N)[C@H]1CC[C@H](C(=O)Nc2ccncc2)CC1", "remaining activity": "96.4%"}
{"Compound": "CCN(CC)CCCCN1c2ccccc2Oc2ccc(Cl)cc21", "remaining activity": "98%"}
{"Compound": "FC(F)(F)c1ccc(/C=C/c2nc(COc3ccc(CCCCn4ccnn4)cc3)co2)cc1", "remaining activity": "98%"}
{"Compound": "CC(C)N(CCC(=O)c1ccc2ccccc2c1)Cc1ccccc1", "remaining activity": "108%"}
{"Compound": "N#C/C(=C(/N)SC1C=CC=CC1)c1cccc(C(O)c2ccncc2)c1 (stereo not shown)", "remaining activity": "100%"}
{"Compound": "O=c1c(-c2ccc(F)cc2)c(-c2ccncc2)[nH]n1-c1ccc(Cl)cc1", "remaining activity": "94.1%"}
{"Compound": "O=C(c1ccccc1)c1ccc(N2CCOCC2)cc1O", "remaining activity": "101%"}
{"Compound": "O=C(O)/C=C/c1cc(Br)c(Br)c(Br)c1Br", "remaining activity": "88.7%"}
{"Compound": "O=C1c2ccccc2-c2nc3nnnn3nc21", "remaining activity": "91.8%"}
{"Compound": "NC(=O)c1cccc(-c2cc(Nc3ccc(OC(F)(F)F)cc3)ncn2)c1", "remaining activity": "94.7%"}
{"data": "Sample 2", "SMILES": "Cc1c(NC(=O)c2cc(C(N)=O)nc3cc(F)ccc23)c(C(F)(F)F)nn1Cc1ccc(C#N)cc1", "effect on": "cell-free assay", "technique": "competition with immobilised ligand", "concentration": "1 µM"}
{"target": "STK11 (Homo sapiens, UniProt Q15831)", "remaining binding [%]": 100}
{"target": "MKNK2 (Homo sapiens, UniProt Q9HBH9)", "remaining binding [%]": 92}
{"target": "DYRK1B (Homo sapiens, UniProt Q9Y463)", "remaining binding [%]": 87}
{"target": "EPHA8 (Homo sapiens, UniProt P29322)", "remaining binding [%]": 91}
{"target": "Receptor-type tyrosine-protein kinase FLT3, autoinhibited (FLT3, Homo sapiens, UniProt P36888)", "remaining binding [%]": 83}
{"target": "MAP3K19 (Homo sapiens, UniProt Q56UN5)", "remaining binding [%]": 72}
{"target": "MAP2K4 (Homo sapiens, UniProt P45985)", "remaining binding [%]": 86}
{"target": "GSK3B (Homo sapiens, UniProt P49841)", "remaining binding [%]": 88}
{"target": "TAOK3 (Homo sapiens, UniProt Q9H2K8)", "remaining binding [%]": 79}
{"target": "MAP3K6 (Homo sapiens, UniProt O95382)", "remaining binding [%]": 75}
{"target": "EGFR (Homo sapiens, UniProt P00533, L858R)", "remaining binding [%]": 97}
{"target": "MAPK11 (Homo sapiens, UniProt Q15759)", "remaining binding [%]": 88}
{"target": "NEK5 (Homo sapiens, UniProt Q6P3R8)", "remaining binding [%]": 100}
{"target": "Aurora kinase C (AURKC, Homo sapiens, UniProt Q9UQB9)", "remaining binding [%]": 90}
{"target": "DMPK (Homo sapiens, UniProt Q09013)", "remaining binding [%]": 92}
{"target": "WEE1 (Homo sapiens, UniProt P30291)", "remaining binding [%]": 94}
{"data": "Sample 3", "Structure (SMILES)": "CC(C)n1cnc(-c2ccc(F)cc2)c1-c1ncc(C(=O)Nc2ccc(N3CCN(C)CC3)cc2)[nH]1", "technique": "phase 2a trial", "host": "idiopathic pulmonary fibrosis patients", "dose": "60 mg once daily"}
{"notes": "adverse event grade 4", "patients with diarrhoea": "0%"}
{"notes": "adverse event grade 3", "patients with diarrhoea": "0%"}
{"notes": "adverse event grade 5", "patients with diarrhoea": "0%"}
{"data": "Other studies, line by line"}
{"Structure (SMILES)": "CC(=O)N[C@@H](Cc1c[nH]c2ccccc12)C(=O)N[C@@H](CCC(=O)C=[N+]=[N-])C(=O)OC(C)C", "measured": "CD44 CD62L", "cell line": "tetramer+ CD8+ T cells", "host": "mouse", "medium": "draining lymph node", "dose": "dose not given", "measurement": "central memory cells", "result": "10.5% and 15.1% and 14.2% and 15.9% and 13.2% and 9.13% and 7.69%"}
{"note": "Excerpt of the above (sample 2):"}
{"target": "MAP3K19 (Homo sapiens, UniProt Q56UN5)", "remaining binding [%]": 72}
{"target": "MAP2K4 (Homo sapiens, UniProt P45985)", "remaining binding [%]": 86}
{"target": "GSK3B (Homo sapiens, UniProt P49841)", "remaining binding [%]": 88}
{"target": "TAOK3 (Homo sapiens, UniProt Q9H2K8)", "remaining binding [%]": 79}
{"target": "MAP3K6 (Homo sapiens, UniProt O95382)", "remaining binding [%]": 75}
